Measured values collected from several papers.
Parts stem from different laboratories: compare values within a part only.

Set 1
Target: Sal-like protein 4, full length isoform A (SALL4, Homo sapiens, UniProt Q9UJQ4, residues 1-1053)
Chain of UniProt Q9UJQ4 (whole entry, looked up): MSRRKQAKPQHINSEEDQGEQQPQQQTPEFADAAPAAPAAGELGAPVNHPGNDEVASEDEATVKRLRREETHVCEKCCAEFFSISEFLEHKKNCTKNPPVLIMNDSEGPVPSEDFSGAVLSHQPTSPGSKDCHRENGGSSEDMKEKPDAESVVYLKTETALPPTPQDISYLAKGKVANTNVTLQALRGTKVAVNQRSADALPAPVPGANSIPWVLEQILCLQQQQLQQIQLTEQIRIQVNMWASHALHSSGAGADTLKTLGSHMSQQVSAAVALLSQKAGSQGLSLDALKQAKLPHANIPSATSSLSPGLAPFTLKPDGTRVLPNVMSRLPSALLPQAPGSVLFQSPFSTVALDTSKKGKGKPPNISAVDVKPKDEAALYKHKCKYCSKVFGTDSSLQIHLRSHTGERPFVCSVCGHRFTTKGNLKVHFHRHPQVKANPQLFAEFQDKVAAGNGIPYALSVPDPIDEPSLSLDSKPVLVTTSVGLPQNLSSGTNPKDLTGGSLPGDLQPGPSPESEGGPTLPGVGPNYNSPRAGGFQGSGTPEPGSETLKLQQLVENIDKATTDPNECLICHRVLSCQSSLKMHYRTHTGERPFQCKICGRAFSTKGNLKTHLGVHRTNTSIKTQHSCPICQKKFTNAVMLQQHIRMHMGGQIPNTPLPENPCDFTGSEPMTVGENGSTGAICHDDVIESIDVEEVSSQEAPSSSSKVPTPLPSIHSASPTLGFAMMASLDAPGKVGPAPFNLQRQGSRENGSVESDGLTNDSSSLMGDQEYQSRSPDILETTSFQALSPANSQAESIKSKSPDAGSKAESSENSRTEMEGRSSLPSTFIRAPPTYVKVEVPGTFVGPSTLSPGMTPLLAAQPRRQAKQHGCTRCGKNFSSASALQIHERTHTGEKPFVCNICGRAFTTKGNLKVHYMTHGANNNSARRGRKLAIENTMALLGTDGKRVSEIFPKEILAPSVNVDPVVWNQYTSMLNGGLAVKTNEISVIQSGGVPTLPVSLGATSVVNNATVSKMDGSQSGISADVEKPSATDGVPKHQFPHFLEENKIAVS
Technique: universal PBM
Molecule type: double-stranded DNA, one strand shown
Medium: in vitro
Concentration: 600 nM
Setting: 8-mer, flanks averaged, mean of replicates
Reading: higher = stronger binding
Quantity: E-score
Oligonucleotide = CGTAGCAG; result = -0.0809
Oligonucleotide = CTATCCCC; result = -0.233
Oligonucleotide = ACCGAACA; result = 0.0803
Oligonucleotide = AGCTCCTC; result = -0.207
Oligonucleotide = CATGGGCC; result = -0.256
Oligonucleotide = AATGAGTG; result = 0.215
Oligonucleotide = GTATGGAC; result = 0.00978
Oligonucleotide = ACAGGAAT; result = 0.148
Oligonucleotide = CGCAGAAG; result = -0.124
Oligonucleotide = AGCCGGGC; result = -0.44
Oligonucleotide = GAGCGCCA; result = -0.288
Oligonucleotide = AAATTAAC; result = 0.266
Oligonucleotide = CCGTCTAA; result = -0.124
Oligonucleotide = CCCCGATC; result = -0.367
Oligonucleotide = CAACTAGG; result = 0.0292
Oligonucleotide = GCATCTTA; result = 0.135
Oligonucleotide = GCGTTGGA; result = -0.182
Oligonucleotide = AATGGCAC; result = -0.00249
Oligonucleotide = CAAGGATC; result = 0.0864
Oligonucleotide = CATTACGG; result = -0.103
Oligonucleotide = CCCACTGA; result = -0.164

Set 2
Target: RING finger protein unkempt homolog, zinc fingers 1-6, SBP tag (UNK, Homo sapiens, UniProt Q9C0B0, residues 30-357)
Chain of UniProt Q9C0B0 (30-357, looked up): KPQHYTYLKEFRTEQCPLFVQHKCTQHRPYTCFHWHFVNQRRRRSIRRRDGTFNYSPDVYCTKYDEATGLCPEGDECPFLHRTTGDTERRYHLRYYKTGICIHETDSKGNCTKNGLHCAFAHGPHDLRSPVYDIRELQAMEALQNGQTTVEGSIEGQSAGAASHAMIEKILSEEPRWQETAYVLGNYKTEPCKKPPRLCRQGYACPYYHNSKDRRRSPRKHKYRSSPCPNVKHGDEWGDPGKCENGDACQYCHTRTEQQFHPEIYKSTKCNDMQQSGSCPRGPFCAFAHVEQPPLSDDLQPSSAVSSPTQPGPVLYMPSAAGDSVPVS
Technique: RNA Bind-n-Seq
Molecule type: RNA
Medium: in vitro
Concentration: 100 nM
Setting: RNA with constant flanks, vertebrate orthologous sites, ends assumed
Reference: input RNA pool
Reading: higher = stronger binding
Quantity: bound/input enrichment
All sequences stand within: GGGAGUUCUACAGUCCGACGAUC … CAACAGAGGAUUGAGCAUCA
Oligonucleotide = UCCAGCCUCAACUGACUGUUUCACAGCAUUCCUUACACAGCUAUUUAACAAGUACAAGUGGAGUUAACUUUCAGGAUACAUCUAGGCACUCAGCAUUAUCCUGCAGUCCAGUUGGAGAUG; result = 0.246 ratio
Oligonucleotide = GUCUAGAGAGGGGUGACAUUAACAUAUCCAAAUAAAGAAAUGCAAUGCUGAAAGUUCUAUCAGUACUAAGGUUAGCUGGAGAAUUUAAAGAAGCCUCUCAGGUAAUUCUAAAAUGAAAAG; result = 0.617 ratio
Oligonucleotide = ACAUAGAAUAUUGGGUGAGCGCAUAAAUUAUCCAAGGCAGUGACUUCAGCUUUAUAUAUAUUGUUAGUUUUAAAGUCACCUCCUUUUAUUUAAACUCCUAGAUCGGAUUGUUUGCUAUUU; result = 1.14 ratio
Oligonucleotide = GUGGGGAUGAGGGUGGGAUGGGAAAGGGAUGUAUGGAUGUUAUUGGCAUUUUUAAGUGUUUAGAGUUUUUUGGGGUUUGGGGUGGUUUUUUCCUUGUUUUCCUUUUUUCCUUUUAAUUGG; result = 2.12 ratio
Oligonucleotide = UUCCCUCAGUGACAGUAUGCCAUCUGUAGCUGAUUCCCACUCAAGUCAUUUCUCUGAAUUUAGUUGUUCUGAUCUAGAAAGCAUGAAAACUUCAUGUAGUCAUGGUUCCAGUGAUUAUCA; result = 0.669 ratio
Oligonucleotide = GCAGGGAUGGCCCAAUCCCACCACUGUUGAGUCUGUAAACUUCGAUCUGUAAAUAACGUUUAGCAUUCCUAUUGUAACAAAAUUAAUUUUUACAAAAUAAAUUAUAUUUCCUAGUCUAAU; result = 0.625 ratio
Oligonucleotide = GUUAGGUCAUGACCCUUAUAGGCUAGGUCAUGAUGCCUAUAGAUUAGGGCAAGACCCUUAUAGAUUAGGCCAUGAUCCCUACAGACUAACUCCUGAUCCCUAUAGGAUGUCACCUAGACC; result = 0.404 ratio
Oligonucleotide = UGAAAGUUACAGGCAUGAGUCCGAAAGUAGAAAUUCUGGUUCCUGGCUAUCAUCUUCUCUCAGGAACAGGUGUACACCAUUGUUUUCGAGGAGAAGAAGAGAAGGGAGAGAUGAAACUGC; result = 0.189 ratio

Set 3
Target: Histone acetyltransferase KAT6A, both winged helices, GST fusion (KAT6A, Homo sapiens, UniProt Q92794, residues 1-181)
Technique: protein binding microarray
Molecule type: double-stranded DNA, one strand shown
Medium: in vitro
Concentration: not given
Setting: 8-mer, flanks averaged, mean of 2 arrays, mostly near background
Reference: not given
Reading: higher = stronger binding
Quantity: E-score
Residues (chain): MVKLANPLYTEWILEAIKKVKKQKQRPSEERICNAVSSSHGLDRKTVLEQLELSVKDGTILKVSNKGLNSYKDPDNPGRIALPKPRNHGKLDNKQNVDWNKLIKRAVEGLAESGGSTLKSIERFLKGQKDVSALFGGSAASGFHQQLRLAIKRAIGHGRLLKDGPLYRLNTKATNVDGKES
Oligonucleotide = ATGCGGTA; result = 0.189
Oligonucleotide = ATTATTGA; result = -0.166
Oligonucleotide = AAAAACCG; result = 0.147
Oligonucleotide = ATACCACG; result = 0.0288
Oligonucleotide = AGCTGGCG; result = 0.0247
Oligonucleotide = TTCCAAAA; result = -0.265
Oligonucleotide = CGCCTCCC; result = 0.0534
Oligonucleotide = GACCATGC; result = 0.0163
Oligonucleotide = ATAAAGAA; result = -0.14
Oligonucleotide = AGTAGGCC; result = -0.112
Oligonucleotide = ATACGTTC; result = -0.0473
Oligonucleotide = GGCGTGTA; result = 0.0334
Oligonucleotide = ATACTCAG; result = 0.00425
Oligonucleotide = AGGATTAA; result = -0.0557
Oligonucleotide = GTTCCAAC; result = 0.00877
Oligonucleotide = ATCATCAG; result = -0.0548
Oligonucleotide = CCCTTGGA; result = -0.123
Oligonucleotide = AAATGAGT; result = -0.0783

Set 4
Target: Interferon regulatory factor 5, full length, phosphomimetic (IRF5, Homo sapiens, UniProt Q13568-2, residues 1-514, S451D/S453D/S456D/S462D)
Technique: protein-binding microarray
Molecule type: double-stranded DNA, one strand shown
Medium: in vitro
Concentration: 940 nM top
Setting: 60-bp whole probe
Added: salmon DNA 0.4 mg/ml
Reference: random background probes
Reading: higher = stronger binding
Quantity: fitted relative affinity
All sequences stand within: GCCTAGCAC … GTCTTGATTCGCTTGACGCTGCTG
Oligonucleotide = GACGGTCTCCTTCTCCTGCCGTGCTAG; result = 0.142 z-score
Oligonucleotide = GACGGTTTCCTTCTCCTTACGTGCTAG; result = 1.67 z-score
Oligonucleotide = TCACTTATTGCTTCCTCACTGTGCTAG; result = 1.29 z-score
Oligonucleotide = GACGGTATCGGGATTCGGGACGTGCTA; result = 3.47 z-score
Oligonucleotide = GACGATTCTAGTTTCGAGACGTGCTAG; result = 4.89 z-score
Oligonucleotide = TCACCATTGGTCTTCACACTGTGCTAG; result = 0.346 z-score
Oligonucleotide = TTTAAAGAACCCACTATCTTGTGCTAG; result = 0.476 z-score
Oligonucleotide = GACGGACAGGGACTGGGGACGTGCTAG; result = -0.405 z-score
Oligonucleotide = AAGTTTCTCCTTTCGGAATAGTGCTAG; result = 5 z-score
Oligonucleotide = AACGGTTTCCTTATCCTGACGTGCTAG; result = 1.48 z-score
Oligonucleotide = TTAAGTTTCGGTCTCGGTTAGTGCTAG; result = 15.2 z-score
Oligonucleotide = GGCTGTTTGGTCCTGATCCTGTGCTAG; result = -0.176 z-score
Oligonucleotide = GACGGTCTACTTATCCTGACGTGCTAG; result = 0.148 z-score
Oligonucleotide = TTAGGTCTCCTACTACTTTAGTGCTAG; result = -0.0147 z-score
Oligonucleotide = TTAGGTTTCGAGTTTCGGTTAGTGCTA; result = 10.2 z-score
Oligonucleotide = TTAGGTTTCGGCCTGGGTTAGTGCTAG; result = 9.94 z-score
Oligonucleotide = GATGAACTGAGTCTCGAGACGTGCTAG; result = 0.729 z-score
Oligonucleotide = TGCACTCTCTACATGTGTTTGTGCTAG; result = 1.02 z-score
Oligonucleotide = GACGGTTTCGGCTATCGGGACGTGCTA; result = 8.51 z-score

Set 5
Target: RNA binding protein fox-1 homolog 2, RRM domain, GST-SBP tag (RBFOX2, Homo sapiens, UniProt O43251-10, residues 100-194)
Technique: RNA Bind-n-Seq
Molecule type: RNA
Medium: in vitro
Concentration: 365 nM
Setting: natural RNA segment, single round, ends assumed
Reference: no-protein control
Reading: higher = stronger binding
Quantity: RBNS enrichment (R)
All sequences stand within: GGGAGUUCUACAGUCCGACGAUC … UGGAAUUCUCGGGUGCCAA
Target sequence (chain): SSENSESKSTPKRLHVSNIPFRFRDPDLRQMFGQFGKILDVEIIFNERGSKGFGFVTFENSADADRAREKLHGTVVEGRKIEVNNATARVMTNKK
Oligonucleotide = UCCAACAUCAAUUUCAUUGCACAGACUGACUGUAGUUAAUUUUGUCACAGAAUCUAUGGACUGAAUCUAAUGCUUCCAAAAAUGUUGUUUGUUUGCAAAUAUCAAACAUU; result = 0.514
Oligonucleotide = AAGCCACCAGCUAUUUCCUGGUGACACAAGCUCUUCUCAGGCGGGGCUGCCUGCAGGCUCCCGUUUUCUGAGCCCACGCUGCCCACAGCUGACCCCAGCGCAGCCCCGGG; result = 0.207
Oligonucleotide = UCACCAUUCUUACAGCCAAGUGGUUGCUGGUCCCCUCAUAACUUUUAGUUACUUAAGUUGAGUAAAUGUCUAAUUGUUUACAAACUAAAUUGACUAAAUAAGGUCAAGGA; result = 0.261
Oligonucleotide = GAAAUGUUUUAACAUCUGGAGCCUUUGUGGGUGGAAAUCUGUCUCCAAUUACAACUCUGCACUGGAUGUGAAGAAGCAAAAACUAUUCCGUCUACUCACAGAACAGUACU; result = 0.242
Oligonucleotide = CCCAUCCCUAAACGAUGUUGUUUUGUUUUUAUUUUUUUCCUUAAUUUGCACGAAAACAGAAAUUCCAUAUCAAUGUGCCUUGCCCUGGAUAGUGAUUAUUUGUGGAAUUG; result = 10.3
Oligonucleotide = CCAUCUUUCGGUGCAUUGGCCAUGUUACUGUGCCAAAGUGUCUUAAUUCUUGUCCCAUCUAUUCUCAGCUGGCCUUGGAACCCACAUAGGAGUUGGUGGGGGAGGGAUGG; result = 0.397
Oligonucleotide = GACUUCCCUAUGCCAGCACAUGUGCCCCAGGUGGGGCUGAGUACAGGUAACCUUGAGCUCAGCUUGGGCCAGCUUUGAACAGUGCUUCUGAGGUCCCCAGAGACCAAAGC; result = 0.333
Oligonucleotide = AACCGAUCCUGGGGCUUUUCCCGCCCGUAGGCGCCUGAGGCAGGCAGGGGCAAGUGUACAAUGGGGCCUAGUCCCCAGCAGGCGGCUGGGAGGCCGCCACUGAGCAUCUC; result = 0.284

Some of these lines once more (set 3):
Oligonucleotide = TTCCAAAA; result = -0.265
Oligonucleotide = CGCCTCCC; result = 0.0534
Oligonucleotide = GACCATGC; result = 0.0163
Oligonucleotide = ATAAAGAA; result = -0.14
Oligonucleotide = AGTAGGCC; result = -0.112
Oligonucleotide = ATACGTTC; result = -0.0473
Oligonucleotide = GGCGTGTA; result = 0.0334
